{"data": "Results from different studies", "partner": "itself", "B1": "LAG3 extracellular domain 23-450 (Homo sapiens, UniProt P18627); chain LQPGAEVPVVWAQEGAPAQLPCSPTIPLQDLSLLRRAGVTWQHQPDSGPPAAAPGHPLAPGPHPAAPSSWGPRPRRYTVLSVGPGGLRSGRLPLQPRVQLDERGRQRGDFSLWLRPARRADAGEYRAAVHLRDRALSCRLRLRLGQASMTASPPGSLRASDWVILNCSFSRPDRPASVHWFRNRGQGRVPVRESPHHHLAESFLFLPQVSPMDSGPWGCILTYRDGFNVSIMYNLTVLGLEPPTPLTVYAGAGSRVGLPCRLPAGVGTRSFLTAKWTPPGGGPDLLVTGDNGDFTLRLEDVSQAQAGTYTCHIHLQEQQLNATVTLAIITVTPKSFGSPGSLGKLLCEVTPVSGQERFVWSSLDTPSQRSFSGPWLEAQEAQLLSQPWQCQLYQGERLLGAAVYFTELSSPGAQRSGRAPGALPAGHL", "note": "Protocols differ between the studies behind these lines. Several values in a cell are separate wells, animals, samples, runs or records."}
{"Molecule": "dye-decolorizing peroxidase 29 PROSS mutations (Pseudomonas putida)", "method": "SEC", "subunits per oligomer": 4}
{"Molecule": "carG (Serratia sp. ATCC 39006)", "method": "SEC", "subunits per oligomer": 2}
{"Molecule": "GUCY1B3 catalytic domain (Homo sapiens)", "method": "native MS", "subunits per oligomer": "2 and 4"}
{"Molecule": "LL-37 mature (Homo sapiens)", "method": "native MS", "subunits per oligomer": "6 and 5"}
{"Molecule": "B1", "method": "SEC-MALS", "subunits per oligomer": 2}
{"Molecule": "ITPR1 C2505A/C2513A (Homo sapiens)", "method": "sucrose density gradient fractionation", "matrix": "lysate", "subunits per oligomer": 4}
{"Molecule": "ASCT residues 10-end (Trypanosoma brucei)", "method": "native gel or EMSA", "subunits per oligomer": 4}
{"Molecule": "lef-3 (Helicoverpa armigera nucleopolyhedrovirus)", "method": "crystal structure", "subunits per oligomer": 8}
{"Molecule": "ACE2/IGHM/JCHAIN ACE2 , monomer (Homo sapiens)", "method": "SEC-MALS", "subunits per oligomer": 10}
{"Molecule": "ITPR1 C2542A (Homo sapiens)", "method": "sucrose density gradient fractionation", "matrix": "lysate", "subunits per oligomer": 2}
{"Molecule": "yadA fragment (Yersinia enterocolitica)", "method": "SDS-PAGE", "subunits per oligomer": 3}
{"Molecule": "HBV core protein Cp149 dimer (hepatitis B virus)", "method": "resistive-pulse sensing", "subunits per oligomer": "114 dimers and 104 dimers and 117 dimers"}
{"Molecule": "gp7 virion capsid", "method": "cryo-EM", "subunits per oligomer": 5}
{"Molecule": "TNC 100-kD chymotryptic fragment, interchain disulfide-linked oligomers (Gallus gallus)", "method": "sedimentation velocity", "subunits per oligomer": 6}
{"Molecule": "opuCA CBS domains (Staphylococcus aureus)", "method": "SEC-MALS", "pH": "pH 7.5", "notes": "NaCl 200 mM", "subunits per oligomer": 2}
{"Molecule": "RcsB REC domain, BeF3- bound (Salmonella Typhimurium)", "method": "crystal structure", "with": "BeF3-", "subunits per oligomer": 2}
{"note": "A few entries again:"}
{"Molecule": "opuCA CBS domains (Staphylococcus aureus)", "method": "SEC-MALS", "pH": "pH 7.5", "notes": "NaCl 200 mM", "subunits per oligomer": 2}
